Measured values gathered from unrelated publications.
Parts stem from different laboratories: compare values within a part only.
Chain of UniProt Q9FGV1 (whole entry, looked up): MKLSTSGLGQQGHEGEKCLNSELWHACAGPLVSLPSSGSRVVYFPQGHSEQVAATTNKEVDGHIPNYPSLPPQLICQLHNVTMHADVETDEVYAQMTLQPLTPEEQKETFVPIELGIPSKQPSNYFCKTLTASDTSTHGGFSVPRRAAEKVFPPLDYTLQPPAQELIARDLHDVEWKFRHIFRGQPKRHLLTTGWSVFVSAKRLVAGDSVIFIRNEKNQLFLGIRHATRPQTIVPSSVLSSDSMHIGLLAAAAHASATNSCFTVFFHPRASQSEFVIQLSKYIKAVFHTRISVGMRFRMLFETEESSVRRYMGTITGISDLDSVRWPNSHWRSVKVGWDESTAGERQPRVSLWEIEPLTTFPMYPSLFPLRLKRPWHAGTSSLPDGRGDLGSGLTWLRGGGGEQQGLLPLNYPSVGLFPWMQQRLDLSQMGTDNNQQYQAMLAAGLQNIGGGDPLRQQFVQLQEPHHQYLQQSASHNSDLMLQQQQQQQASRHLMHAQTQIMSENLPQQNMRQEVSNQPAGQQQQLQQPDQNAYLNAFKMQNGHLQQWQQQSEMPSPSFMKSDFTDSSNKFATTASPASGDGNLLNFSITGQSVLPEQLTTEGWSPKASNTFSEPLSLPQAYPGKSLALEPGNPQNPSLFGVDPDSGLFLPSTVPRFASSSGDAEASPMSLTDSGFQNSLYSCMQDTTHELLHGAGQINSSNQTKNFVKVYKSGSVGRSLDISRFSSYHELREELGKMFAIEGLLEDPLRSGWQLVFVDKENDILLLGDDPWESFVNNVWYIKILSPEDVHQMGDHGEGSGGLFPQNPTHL
Chain of UniProt Q9XID4 (whole entry, looked up): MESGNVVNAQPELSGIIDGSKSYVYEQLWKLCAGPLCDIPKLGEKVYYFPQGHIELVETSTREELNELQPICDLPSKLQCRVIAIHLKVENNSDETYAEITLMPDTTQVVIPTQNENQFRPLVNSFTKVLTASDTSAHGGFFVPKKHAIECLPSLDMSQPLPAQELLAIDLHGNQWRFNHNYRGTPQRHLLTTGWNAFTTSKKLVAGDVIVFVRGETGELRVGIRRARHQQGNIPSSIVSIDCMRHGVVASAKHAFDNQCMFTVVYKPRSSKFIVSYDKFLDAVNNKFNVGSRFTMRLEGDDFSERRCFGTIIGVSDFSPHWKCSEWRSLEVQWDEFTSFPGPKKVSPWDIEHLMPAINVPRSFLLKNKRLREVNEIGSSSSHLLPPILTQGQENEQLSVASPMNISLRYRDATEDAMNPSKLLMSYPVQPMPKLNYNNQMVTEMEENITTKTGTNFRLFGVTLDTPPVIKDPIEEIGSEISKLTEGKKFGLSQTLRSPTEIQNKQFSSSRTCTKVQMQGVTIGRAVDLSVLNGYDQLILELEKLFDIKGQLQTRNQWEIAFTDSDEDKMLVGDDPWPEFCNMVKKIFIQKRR
Chain of UniProt Q84WU6 (whole entry, looked up): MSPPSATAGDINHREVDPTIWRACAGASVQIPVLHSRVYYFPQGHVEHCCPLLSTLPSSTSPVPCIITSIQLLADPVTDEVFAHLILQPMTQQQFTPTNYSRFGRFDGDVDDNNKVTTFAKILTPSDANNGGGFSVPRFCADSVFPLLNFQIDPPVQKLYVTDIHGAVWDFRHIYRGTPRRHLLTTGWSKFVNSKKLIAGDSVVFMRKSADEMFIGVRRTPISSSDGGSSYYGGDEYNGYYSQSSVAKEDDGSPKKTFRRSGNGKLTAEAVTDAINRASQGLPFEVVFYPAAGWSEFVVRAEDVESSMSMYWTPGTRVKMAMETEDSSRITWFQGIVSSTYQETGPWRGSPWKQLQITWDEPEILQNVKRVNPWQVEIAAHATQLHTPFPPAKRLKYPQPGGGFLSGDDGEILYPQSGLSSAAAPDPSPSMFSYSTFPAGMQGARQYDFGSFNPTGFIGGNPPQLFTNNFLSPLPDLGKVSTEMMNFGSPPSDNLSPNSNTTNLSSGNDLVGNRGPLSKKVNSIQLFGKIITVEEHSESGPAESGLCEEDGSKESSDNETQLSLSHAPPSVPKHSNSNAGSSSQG
Chain of UniProt Q93YR9 (whole entry, looked up): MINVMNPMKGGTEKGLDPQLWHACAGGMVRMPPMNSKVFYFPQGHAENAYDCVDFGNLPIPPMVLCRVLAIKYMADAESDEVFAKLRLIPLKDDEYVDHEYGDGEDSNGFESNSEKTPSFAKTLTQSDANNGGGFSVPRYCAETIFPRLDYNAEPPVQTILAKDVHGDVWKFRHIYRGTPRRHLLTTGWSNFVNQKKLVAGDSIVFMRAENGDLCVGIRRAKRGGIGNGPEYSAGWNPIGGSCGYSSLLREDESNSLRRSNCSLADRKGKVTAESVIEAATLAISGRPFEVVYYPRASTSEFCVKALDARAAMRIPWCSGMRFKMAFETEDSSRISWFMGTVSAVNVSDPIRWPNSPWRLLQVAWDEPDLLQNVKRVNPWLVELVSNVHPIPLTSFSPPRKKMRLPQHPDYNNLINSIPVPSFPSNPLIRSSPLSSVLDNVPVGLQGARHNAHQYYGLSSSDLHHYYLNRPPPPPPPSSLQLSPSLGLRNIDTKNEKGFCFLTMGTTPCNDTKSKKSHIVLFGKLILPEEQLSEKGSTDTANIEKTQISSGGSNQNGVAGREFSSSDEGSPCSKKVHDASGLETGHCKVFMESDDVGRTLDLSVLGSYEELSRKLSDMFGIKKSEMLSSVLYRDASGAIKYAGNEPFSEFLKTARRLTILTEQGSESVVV
Chain of UniProt Q9C8N7 (whole entry, looked up): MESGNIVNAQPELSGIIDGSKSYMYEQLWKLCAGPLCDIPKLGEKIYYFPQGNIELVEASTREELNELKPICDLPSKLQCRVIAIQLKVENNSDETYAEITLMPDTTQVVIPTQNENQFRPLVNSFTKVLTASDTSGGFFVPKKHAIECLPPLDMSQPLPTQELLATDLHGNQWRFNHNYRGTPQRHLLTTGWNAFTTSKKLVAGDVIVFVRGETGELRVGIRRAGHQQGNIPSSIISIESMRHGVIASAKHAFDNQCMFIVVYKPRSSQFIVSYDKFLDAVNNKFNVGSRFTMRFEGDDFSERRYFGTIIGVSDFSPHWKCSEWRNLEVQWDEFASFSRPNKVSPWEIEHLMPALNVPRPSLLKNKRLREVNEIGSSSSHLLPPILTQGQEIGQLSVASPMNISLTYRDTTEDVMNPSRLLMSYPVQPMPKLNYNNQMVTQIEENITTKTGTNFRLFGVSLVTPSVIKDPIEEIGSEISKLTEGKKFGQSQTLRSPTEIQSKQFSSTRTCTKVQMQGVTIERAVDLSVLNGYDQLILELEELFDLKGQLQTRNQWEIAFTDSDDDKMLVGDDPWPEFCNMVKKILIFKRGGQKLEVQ

Block 1
Target: Prothrombin, mature alpha-thrombin (F2, Homo sapiens, UniProt P00734)
Method: aptamer microarray, sandwich
Molecule type: DNA with 2'F-ANA
Sample: in vitro
Tested at: 200 nM
Notes: whole 15-mer aptamer, many near background
Added: Cy3 exosite-II aptamer, 400 nM
Direction: higher = stronger binding
Quantity: mean fluorescence intensity
Sequence: GGTTGGTGTGGTTGG
2'F-ANA at 2 5 7 10 11 13 14 15: 50.1 a.u.
2'F-ANA at 2 3 5 6 12 13 14: 53.3 a.u.
2'F-ANA at 2 4 5 6 8 9 10 12 14: 47.4 a.u.
2'F-ANA at 2 5 6 7 8 9 10 11 14 15: 47.3 a.u.
2'F-ANA at 1 2 4 5 6 8 9 10 11 13 14 15: 65.2 a.u.
2'F-ANA at 5 10 11 14 15: 68.4 a.u.
2'F-ANA at 2 3 9 12 14: 497 a.u.
2'F-ANA at 1 4 5 6 7 8 9 10 11 15: 50 a.u.
2'F-ANA at 2 5 8 13: 54.9 a.u.
2'F-ANA at 1 3 6 7 8 10 11 13: 126 a.u.
2'F-ANA at 4 5 9 12 15: 138 a.u.
2'F-ANA at 5 6 7 9 10 12 13 15: 72.5 a.u.
2'F-ANA at 1 6 12: 372 a.u.
2'F-ANA at 1 2 3 7 8 11 12 15: 476 a.u.
2'F-ANA at 1 2 4 8 12 15: 399 a.u.
2'F-ANA at 1 2 3 4 5 12: 129 a.u.
2'F-ANA at 2 4 5 8 11 12 14 15: 47.8 a.u.
2'F-ANA at 2 4 6 7 11 15: 227 a.u.
2'F-ANA at 6 7 10 11 12 15: 178 a.u.
2'F-ANA at 2 3 5 7 8 11 12 14 15: 79.9 a.u.
2'F-ANA at 2 3 5 6 9 10 11 13 14: 45.8 a.u.
2'F-ANA at 4 5 6 9 10 12 13: 57.7 a.u.

Block 2
Target: Myc proto-oncogene protein, bHLH-zipper, MAX partner unstated (MYC, Homo sapiens, UniProt P01106, residues 368-449)
Chain of UniProt P01106 (368-449, looked up): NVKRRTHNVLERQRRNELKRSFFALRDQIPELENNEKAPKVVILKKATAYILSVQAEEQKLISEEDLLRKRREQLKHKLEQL
Method: protein-binding microarray
Molecule type: double-stranded DNA, one strand shown
Sample: in vitro
Tested at: not given
Notes: k-mer, scored over probes, only values ≥0.25
Direction: higher = stronger binding
Quantity: E-score
GCTACCAC: 0.288
ACACGTTG: 0.413
GCGCACAC: 0.347
CATGTCGC: 0.321
ATGCCTCG: 0.292
ACCACGCT: 0.428
ATCCATGC: 0.358
CCATGCTC: 0.358
CACACGAG: 0.393
CCACACCA: 0.319
ACATGGAC: 0.33
ACGAGGAC: 0.362
CGTGCCCC: 0.383
CACGACGC: 0.266
TCATGGCA: 0.275
CACATGTA: 0.453
CACCACCC: 0.297
AGGCGCAT: 0.28
AACACATG: 0.462
CCGCCACA: 0.267
ATGCACGA: 0.312
CGTGTTTA: 0.377
GGAGGGGA: 0.266
CATGGCAG: 0.343
CATATGTC: 0.251

Block 3
Molecule: B1 (IAA9)
Method: two-hybrid
Direction: higher = firmer interaction
Quantity: positive tests
B1: IAA9 (Arabidopsis thaliana, UniProt Q38827); chain MSPEEELQSNVSVASSSPTSNCISRNTLGGLKEHNYLGLSDCSSVGSSTLSPLAEDDKATISLKATELTLGLPGSQSPARDTELNLLSPAKLDEKPFFPLLPSKDEICSSSQKNNASGNKRGFSDTMDQFAEAKSSVYTEKNWMFPEAAATQSVTKKDVPQNIPKGQSSTTNNSSSPPAAKAQIVGWPPVRSYRKNTLATTCKNSDEVDGRPGSGALFVKVSMDGAPYLRKVDLRSYTNYGELSSALEKMFTTFTLGQCGSNGAAGKDMLSETKLKDLLNGKDYVLTYEDKDGDWMLVGDVPWEMFIDVCKKLKIMKGCDAIGLAAAPRAMEKSKMRA
ARF12 500-593 (Arabidopsis thaliana, UniProt Q9XID4); baseline: out of 2 tests: 0
ARF16 570-670 (Arabidopsis thaliana, UniProt Q93YR9); baseline: out of 4 tests: 0
ARF8 699-811 (Arabidopsis thaliana, UniProt Q9FGV1); baseline: out of 2 tests: 1
ARF22 498-598 (Arabidopsis thaliana, UniProt Q9C8N7); baseline: out of 2 tests: 2
ARF17 (Arabidopsis thaliana, UniProt Q84WU6); weak activation fusion; baseline: out of 2 tests: 1

Block 4
Target: Histone acetyltransferase KAT6A, both winged helices, GST fusion (KAT6A, Homo sapiens, UniProt Q92794, residues 1-181)
Method: protein binding microarray
Molecule type: double-stranded DNA, one strand shown
Sample: in vitro
Tested at: not given
Notes: 8-mer, flanks averaged, mean of 2 arrays, mostly near background
Baseline: not given
Direction: higher = stronger binding
Quantity: E-score
Target sequence (chain): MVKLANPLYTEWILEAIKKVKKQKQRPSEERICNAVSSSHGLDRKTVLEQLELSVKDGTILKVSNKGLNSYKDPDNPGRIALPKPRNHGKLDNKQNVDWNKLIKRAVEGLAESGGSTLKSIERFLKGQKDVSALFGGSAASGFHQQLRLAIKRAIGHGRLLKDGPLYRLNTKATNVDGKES
AGCCAGGG: -0.168
ACACAGTG: -0.098
GGGGTCTA: 0.00402
ATTGCATA: -0.00172
GGGTTCCA: -0.00886
CCGAAGTA: -0.0067
CTGTCCTC: -0.115
ATTCCTGG: -0.027
CCAAGCTA: -0.225
ACGGACAC: 0.208
AAAAGTAA: -0.146
GCTTTACA: 0.0741
ACGCCTAT: 0.0215
CATACTCC: -0.0772
AATATGGT: -0.0775
GCGGTGGA: 0.0245
GAAGACGC: 0.0992
CTGTCGAC: 0.0641
GTTGAATA: -0.0129
ACCGGCTC: 0.132
CCATCAGG: -0.157
TAGAAGCA: -0.285
ACACAAGA: -0.181
GTTGAGCA: -0.0635
ACGACGCC: 0.232

Block 5
Target: RNA binding protein fox-1 homolog 2, RRM domain, GST-SBP tag (RBFOX2, Homo sapiens, UniProt O43251-10, residues 100-194)
Method: RNA Bind-n-Seq
Molecule type: RNA
Sample: in vitro
Tested at: 365 nM
Notes: natural RNA segment, single round, ends assumed
Baseline: no-protein control
Direction: higher = stronger binding
Quantity: RBNS enrichment (R)
Target sequence (chain): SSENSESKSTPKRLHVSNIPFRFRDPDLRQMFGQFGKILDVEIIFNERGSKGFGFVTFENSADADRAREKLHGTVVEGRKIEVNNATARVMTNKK
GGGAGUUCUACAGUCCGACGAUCAAAAAGCAAAUCUUUCUGUAAACAGAAUAAAAGUUCCUCUCCCUUCCCUUCCCUCACCCCUGACAUGUACCCCCUUUCCCUUCUGGCUGUUCCCCUGCUCUGUUGCCUCUUGGAAUUCUCGGGUGCCAA: 1.59
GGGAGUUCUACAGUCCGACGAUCGGAGAAUUGCCGGGAGUACAAAGUCAACCGGAGCUAAAUAAUAUCAGCCACCAGGACUACAUAACGAAAGAUUGCCACAGAGGAAAGGAAGGAAGAAAAAGCCAGCAAUCUGGAAUUCUCGGGUGCCAA: 0.479
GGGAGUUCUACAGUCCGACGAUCACAGCCAUGUCUGCGACGAUCAGCCUCUGGAGGCUGAAUGGGAAGCAGAGCUUUCGACCCACUCUAGUGGCUGGGCGGGCGUGGGGUAUCUAGCAGGCUGGAGUGAAGGGUGGAAUUCUCGGGUGCCAA: 0.653
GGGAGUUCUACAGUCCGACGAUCCAGACCUAUAUCUGGAGUGAGAGGCCCCCACCCUUGGGCAGAGUCCUGCCUUCUUCCUUGAGGGGCAGUUUGGGAAGGUGAUGGGUAUUAGUGGGGGACUGAGUUCAGGUUGGAAUUCUCGGGUGCCAA: 0.547
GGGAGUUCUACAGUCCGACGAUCGUGCCCUCGCUUCAUGAGGUGGCACAUCUUCGGUGGCCGUUGGCCUGGUCGAGCUUUGGUCAGCUGCGUGGGUGCCUGUCUCCUGUCUCCAGCGGCAGGGCAUGGUUCUUUGGAAUUCUCGGGUGCCAA: 0.454
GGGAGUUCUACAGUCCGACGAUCUACAGUUUUGAUUUAUUUACAAUAUAUGCUGUGCCAUUUUGAUUUUUAUAUUGUUUGGUUGGUUGAAUAAAUUUGCGACACUCAAACACUUGAGGUGAUAGUUGUUAAAAUGGAAUUCUCGGGUGCCAA: 0.553
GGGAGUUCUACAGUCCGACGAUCUGGGGCCUGGAGUCUGGUGCUGUUCCCCAGCCAGCCUGGCUGCAGACCUCUCUGGCUGAUACCGCUCUUCUUCUUUAAUUGGACUUCAUAUCAAGCCUCUGCCUUGGUUUUGGAAUUCUCGGGUGCCAA: 0.438
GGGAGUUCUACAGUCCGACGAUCCCCGUACAAGCCACGCUGGCUGCUCAAGUACUAGCACCCCUCUCAGGCCCGACCUUGAUGUCCACCUCCACAGCCUGGGCUUCUGCCUGGAGCCUGGCAGCCACAGACAUUGGAAUUCUCGGGUGCCAA: 0.423
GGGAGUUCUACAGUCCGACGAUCAGGCCUGAGAGAGGAGCUGCUCAGUUUACAGAACAGGAGCGGGUUACCAGACUCAUUCUUUUCAUCCAGCAGGCUAGUGGGAAGGAAUGGGUGUUCCUGUUUAACUUUCUUGGAAUUCUCGGGUGCCAA: 0.338
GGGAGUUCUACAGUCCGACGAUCAUACCCACCGCCCAGCUUCUCCCUGAGGGCCCACCAGCCUGUGCUGCAUACCCACCGCCCAGCUUCUCCCUGAGGGCCCACCAGCCUGUGCUGUACACCCCGUUAGUCCCUGGAAUUCUCGGGUGCCAA: 1.11
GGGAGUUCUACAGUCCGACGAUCAAUGUUAGAGCACAGUACAUAAUACACUUGCCCUGCUCCCUCUCCCCCUUACCCCACAACGUGCAACUGACACUCCCACCCAGUCUCUGCUCCACCUUUCAGCCCACGUCUGGAAUUCUCGGGUGCCAA: 0.858
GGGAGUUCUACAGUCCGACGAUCAAGGGGCAGGAGAUGACCCUCCCCUAGGCUUUCAGCUUCAGGCAGCUUCUUCACAGCCUGUUCAGCCUGGGCUCCUGGAGGACAGCCCUGGGGGAGGCAGUGAGGGGCAGUGGAAUUCUCGGGUGCCAA: 0.35

For quick reference, copied from above (block 5):
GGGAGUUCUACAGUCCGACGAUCGUGCCCUCGCUUCAUGAGGUGGCACAUCUUCGGUGGCCGUUGGCCUGGUCGAGCUUUGGUCAGCUGCGUGGGUGCCUGUCUCCUGUCUCCAGCGGCAGGGCAUGGUUCUUUGGAAUUCUCGGGUGCCAA: 0.454
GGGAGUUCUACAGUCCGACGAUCAAGGGGCAGGAGAUGACCCUCCCCUAGGCUUUCAGCUUCAGGCAGCUUCUUCACAGCCUGUUCAGCCUGGGCUCCUGGAGGACAGCCCUGGGGGAGGCAGUGAGGGGCAGUGGAAUUCUCGGGUGCCAA: 0.35
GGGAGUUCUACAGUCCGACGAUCAAUGUUAGAGCACAGUACAUAAUACACUUGCCCUGCUCCCUCUCCCCCUUACCCCACAACGUGCAACUGACACUCCCACCCAGUCUCUGCUCCACCUUUCAGCCCACGUCUGGAAUUCUCGGGUGCCAA: 0.858
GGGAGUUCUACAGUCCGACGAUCCAGACCUAUAUCUGGAGUGAGAGGCCCCCACCCUUGGGCAGAGUCCUGCCUUCUUCCUUGAGGGGCAGUUUGGGAAGGUGAUGGGUAUUAGUGGGGGACUGAGUUCAGGUUGGAAUUCUCGGGUGCCAA: 0.547
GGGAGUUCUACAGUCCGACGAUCCCCGUACAAGCCACGCUGGCUGCUCAAGUACUAGCACCCCUCUCAGGCCCGACCUUGAUGUCCACCUCCACAGCCUGGGCUUCUGCCUGGAGCCUGGCAGCCACAGACAUUGGAAUUCUCGGGUGCCAA: 0.423
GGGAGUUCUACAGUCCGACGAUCUGGGGCCUGGAGUCUGGUGCUGUUCCCCAGCCAGCCUGGCUGCAGACCUCUCUGGCUGAUACCGCUCUUCUUCUUUAAUUGGACUUCAUAUCAAGCCUCUGCCUUGGUUUUGGAAUUCUCGGGUGCCAA: 0.438
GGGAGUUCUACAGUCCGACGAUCUACAGUUUUGAUUUAUUUACAAUAUAUGCUGUGCCAUUUUGAUUUUUAUAUUGUUUGGUUGGUUGAAUAAAUUUGCGACACUCAAACACUUGAGGUGAUAGUUGUUAAAAUGGAAUUCUCGGGUGCCAA: 0.553
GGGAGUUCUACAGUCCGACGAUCAGGCCUGAGAGAGGAGCUGCUCAGUUUACAGAACAGGAGCGGGUUACCAGACUCAUUCUUUUCAUCCAGCAGGCUAGUGGGAAGGAAUGGGUGUUCCUGUUUAACUUUCUUGGAAUUCUCGGGUGCCAA: 0.338
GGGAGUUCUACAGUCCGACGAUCAAAAAGCAAAUCUUUCUGUAAACAGAAUAAAAGUUCCUCUCCCUUCCCUUCCCUCACCCCUGACAUGUACCCCCUUUCCCUUCUGGCUGUUCCCCUGCUCUGUUGCCUCUUGGAAUUCUCGGGUGCCAA: 1.59
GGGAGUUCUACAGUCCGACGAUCACAGCCAUGUCUGCGACGAUCAGCCUCUGGAGGCUGAAUGGGAAGCAGAGCUUUCGACCCACUCUAGUGGCUGGGCGGGCGUGGGGUAUCUAGCAGGCUGGAGUGAAGGGUGGAAUUCUCGGGUGCCAA: 0.653
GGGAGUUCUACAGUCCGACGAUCAUACCCACCGCCCAGCUUCUCCCUGAGGGCCCACCAGCCUGUGCUGCAUACCCACCGCCCAGCUUCUCCCUGAGGGCCCACCAGCCUGUGCUGUACACCCCGUUAGUCCCUGGAAUUCUCGGGUGCCAA: 1.11
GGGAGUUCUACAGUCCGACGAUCGGAGAAUUGCCGGGAGUACAAAGUCAACCGGAGCUAAAUAAUAUCAGCCACCAGGACUACAUAACGAAAGAUUGCCACAGAGGAAAGGAAGGAAGAAAAAGCCAGCAAUCUGGAAUUCUCGGGUGCCAA: 0.479
